{"data": "Published values from different studies", "note": "Protocols differ between the studies behind these lines. ± gives the spread as reported."}
{"Compound": "C=C(C)C(=O)NCCCCCCOCc1cn(CCCCCCNC(=O)C(=C)C)n[n+]1C", "cell line": "L929", "test": "viability, alamarBlue", "setting": "3 days", "IC50": "> 50 µM"}
{"Compound": "CC(C)c1cccc(C(C)C)c1N1C(=O)C2=Nc3ccccc3CN2C1=S", "cell line": "CEM/ADR5000 (P-gp overexpressing, multidrug resistant)", "test": "cell viability, resazurin", "setting": "72 h", "IC50": "19.1 ± 7.1 µM"}
{"Compound": "Cc1ccccc1/C=C/C(=O)N[C@@H](CO)C(=O)N[C@H](C(=O)N[C@H](Cc1ccccc1)C(=O)O)[C@@H](C)O", "cell line": "SK-HEP1", "IC50": "> 20 µM"}
{"Compound": "O=C1CS/C(=N\\N=C2/C(=O)N(CCn3ncc4c(=O)[nH]cnc43)c3ccc(Cl)cc32)N1", "cell line": "A498", "test": "cell growth or viability, SRB", "setting": "72 h", "IC50": "42.6 µg/mL"}
{"Compound": "Cn1ncc(-c2ccc3c(=O)[nH]nc(CN)c3c2)c1-c1c(F)c(Cl)cc(OC2CC2)c1C#N", "cell line": "NCI-H3122", "test": "cell viability, inhibitor, CellTiter-Glo", "setting": "120 h, baseline-subtracted", "IC50": "0.16 µM"}
{"Compound": "COC(=O)c1cc(NC2=NC(=O)C(=Cc3ccc(N(C)C)cc3)S2)ccc1OC(C)=O", "cell line": "HCT-116 CDK4 knockout", "test": "cell growth, SRB", "IC50": "0.43 µM"}
{"Compound": "COC[C@H](C)N1C(=O)C2=Nc3ccccc3CN2C1=S", "cell line": "CEM/ADR5000 (P-gp overexpressing, multidrug resistant)", "test": "cell viability, resazurin", "setting": "72 h", "IC50": "5.29 ± 0.668 µM"}
{"Compound": "C[n+]1nn(CCCCCCN2C(=O)C=CC2=O)cc1COCCCCCCN1C(=O)C=CC1=O", "cell line": "L929", "test": "cell growth or viability", "setting": "72 h", "IC50": "> 50 µM"}
{"Compound": "CC1(C)C[C@@H](Nc2cccc(-c3sc(C(=O)O)c(OCC(=O)O)c3Cl)c2)CCN1S(=O)(=O)Cc1cccc(NC(=O)CN2CCC(c3ccc4c(c3)oc(=O)n4C3CCC(=O)NC3=O)CC2)c1 (some centres unmarked)", "cell line": "B16-F10 cells", "test": "IFNγ-induced STAT1 phosphorylation, HTRF, item: pSTAT1 Tyr701", "setting": "24 h, with: IFNγ", "IC50": "0.206 ± 0.022 µM"}
{"Compound": "C[n+]1nn(CCCCCCCCCCN2C(=O)C=CC2=O)cc1COCCCCCCCCCCN1C(=O)C=CC1=O", "cell line": "L929", "test": "cell growth or viability", "setting": "72 h", "IC50": "18.2 µM"}
{"Compound": "C[C@H](c1ccccc1)N1C(=O)C2=Nc3cc(Cl)ccc3CN2C1=S", "cell line": "CEM/ADR5000 (P-gp overexpressing, multidrug resistant)", "test": "cell viability, resazurin", "setting": "72 h", "IC50": "0.156 ± 0.013 µM"}
{"Compound": "CC(C)c1ccc(N(C)c2ccc3c(c2)OCC[C@H]3CNc2cnccc2C(=O)O)cc1", "cell line": "SK-HEP1", "test": "cell growth or viability, ATP luminescence", "setting": "7 days", "IC50": "≥ 10 µM"}
{"Compound": "CCOc1cncc(-c2ccc(NC(=O)C3(c4ccnc(NS(=O)(=O)C5CC5)n4)CCOCC3)nc2)n1", "cell line": "NALM-33", "test": "cell proliferation, CellTiter-Glo", "setting": "72 h, lymphoid haematological cancer", "IC50": "0.003 µM"}
{"Compound": "O=C(NS(=O)(=O)c1cccs1)c1cc2ccccc2n1Cc1ccc(Br)c2ccccc12", "cell line": "mouse BMDM", "test": "IL-1β release, inhibitor, ELISA", "setting": "LPS-stimulated", "IC50": "2.61 µM"}
{"Compound": "C[n+]1nn(CCCCN2C(=O)C=CC2=O)cc1COCCCCN1C(=O)C=CC1=O", "cell line": "L929", "test": "cell growth or viability", "setting": "72 h", "IC50": "29.5 µM"}
{"Compound": "NC1=C(Cl)C(=O)c2cccc([N+](=O)[O-])c2C1=O", "cell line": "HuCC-A1", "test": "cell growth or viability, MTT", "IC50": "14.1 µM"}
{"Compound": "CNS(=O)(=O)Nc1nccc(Cc2c(C)c3ccc(Oc4ncccc4F)cc3oc2=O)c1F", "cell line": "SK-HEP1", "test": "cell viability", "setting": "7 days", "IC50": "> 1 µM"}
{"note": "A few entries again:"}
{"Compound": "Cn1ncc(-c2ccc3c(=O)[nH]nc(CN)c3c2)c1-c1c(F)c(Cl)cc(OC2CC2)c1C#N", "cell line": "NCI-H3122", "test": "cell viability, inhibitor, CellTiter-Glo", "setting": "120 h, baseline-subtracted", "IC50": "0.16 µM"}
{"Compound": "COC(=O)c1cc(NC2=NC(=O)C(=Cc3ccc(N(C)C)cc3)S2)ccc1OC(C)=O", "cell line": "HCT-116 CDK4 knockout", "test": "cell growth, SRB", "IC50": "0.43 µM"}
